Measured values from different studies.
Protocols differ between the studies behind these lines. ± gives the spread as reported.
lasR: Transcriptional activator protein LasR (lasR, Pseudomonas aeruginosa, UniProt P25084)
UniProt P25084, sequence (whole entry, looked up): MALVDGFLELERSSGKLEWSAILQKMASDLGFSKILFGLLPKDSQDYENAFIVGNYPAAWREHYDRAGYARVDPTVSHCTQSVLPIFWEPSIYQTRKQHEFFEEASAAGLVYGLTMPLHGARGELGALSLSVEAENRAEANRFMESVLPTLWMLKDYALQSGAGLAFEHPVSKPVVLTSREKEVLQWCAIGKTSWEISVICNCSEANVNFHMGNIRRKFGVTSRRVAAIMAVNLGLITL
APP: Amyloid-beta precursor protein (APP, Homo sapiens, UniProt P05067)
UniProt P21554, sequence (whole entry, unmodified, looked up): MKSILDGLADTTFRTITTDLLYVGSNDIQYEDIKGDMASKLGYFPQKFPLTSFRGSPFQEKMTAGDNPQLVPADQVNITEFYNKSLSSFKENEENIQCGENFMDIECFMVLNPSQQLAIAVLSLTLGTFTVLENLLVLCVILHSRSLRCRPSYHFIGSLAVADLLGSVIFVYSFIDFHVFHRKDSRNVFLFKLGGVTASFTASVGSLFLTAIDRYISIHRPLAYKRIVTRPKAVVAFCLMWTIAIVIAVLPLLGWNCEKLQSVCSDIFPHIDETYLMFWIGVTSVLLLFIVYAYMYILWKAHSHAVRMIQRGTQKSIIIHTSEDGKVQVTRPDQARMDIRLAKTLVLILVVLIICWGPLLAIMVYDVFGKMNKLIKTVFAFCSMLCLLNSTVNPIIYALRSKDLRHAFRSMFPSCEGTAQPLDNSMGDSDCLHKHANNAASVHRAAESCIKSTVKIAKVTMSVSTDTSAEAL
UniProt P23443, sequence (whole entry, looked up): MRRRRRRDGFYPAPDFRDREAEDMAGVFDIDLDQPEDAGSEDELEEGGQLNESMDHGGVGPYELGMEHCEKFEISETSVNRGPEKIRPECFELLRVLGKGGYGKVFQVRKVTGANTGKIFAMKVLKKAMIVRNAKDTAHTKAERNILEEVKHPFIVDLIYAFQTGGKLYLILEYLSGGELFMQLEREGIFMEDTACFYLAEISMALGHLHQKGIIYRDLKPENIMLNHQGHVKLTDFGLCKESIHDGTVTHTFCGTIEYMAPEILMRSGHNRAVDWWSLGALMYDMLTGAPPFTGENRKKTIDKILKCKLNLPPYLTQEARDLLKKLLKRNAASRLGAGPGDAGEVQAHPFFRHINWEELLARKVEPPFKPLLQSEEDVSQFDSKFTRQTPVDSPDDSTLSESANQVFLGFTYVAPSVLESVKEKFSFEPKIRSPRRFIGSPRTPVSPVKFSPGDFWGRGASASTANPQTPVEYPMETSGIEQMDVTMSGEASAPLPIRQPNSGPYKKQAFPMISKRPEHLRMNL
UniProt P54578, sequence (whole entry, looked up): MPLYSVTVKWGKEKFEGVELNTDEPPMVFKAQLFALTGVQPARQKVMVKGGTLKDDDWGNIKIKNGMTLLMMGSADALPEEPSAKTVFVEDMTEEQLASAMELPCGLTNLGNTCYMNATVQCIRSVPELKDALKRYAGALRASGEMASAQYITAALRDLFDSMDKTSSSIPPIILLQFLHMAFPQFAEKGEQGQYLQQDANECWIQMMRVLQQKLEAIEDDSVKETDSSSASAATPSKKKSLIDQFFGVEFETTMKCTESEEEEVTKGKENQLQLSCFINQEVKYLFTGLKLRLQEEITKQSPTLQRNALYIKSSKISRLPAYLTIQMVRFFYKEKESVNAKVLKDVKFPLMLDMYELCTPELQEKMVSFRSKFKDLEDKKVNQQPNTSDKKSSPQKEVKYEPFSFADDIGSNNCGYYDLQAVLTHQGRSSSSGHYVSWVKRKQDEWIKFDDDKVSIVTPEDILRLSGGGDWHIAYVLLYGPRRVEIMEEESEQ
UniProt P16234, sequence (whole entry, looked up): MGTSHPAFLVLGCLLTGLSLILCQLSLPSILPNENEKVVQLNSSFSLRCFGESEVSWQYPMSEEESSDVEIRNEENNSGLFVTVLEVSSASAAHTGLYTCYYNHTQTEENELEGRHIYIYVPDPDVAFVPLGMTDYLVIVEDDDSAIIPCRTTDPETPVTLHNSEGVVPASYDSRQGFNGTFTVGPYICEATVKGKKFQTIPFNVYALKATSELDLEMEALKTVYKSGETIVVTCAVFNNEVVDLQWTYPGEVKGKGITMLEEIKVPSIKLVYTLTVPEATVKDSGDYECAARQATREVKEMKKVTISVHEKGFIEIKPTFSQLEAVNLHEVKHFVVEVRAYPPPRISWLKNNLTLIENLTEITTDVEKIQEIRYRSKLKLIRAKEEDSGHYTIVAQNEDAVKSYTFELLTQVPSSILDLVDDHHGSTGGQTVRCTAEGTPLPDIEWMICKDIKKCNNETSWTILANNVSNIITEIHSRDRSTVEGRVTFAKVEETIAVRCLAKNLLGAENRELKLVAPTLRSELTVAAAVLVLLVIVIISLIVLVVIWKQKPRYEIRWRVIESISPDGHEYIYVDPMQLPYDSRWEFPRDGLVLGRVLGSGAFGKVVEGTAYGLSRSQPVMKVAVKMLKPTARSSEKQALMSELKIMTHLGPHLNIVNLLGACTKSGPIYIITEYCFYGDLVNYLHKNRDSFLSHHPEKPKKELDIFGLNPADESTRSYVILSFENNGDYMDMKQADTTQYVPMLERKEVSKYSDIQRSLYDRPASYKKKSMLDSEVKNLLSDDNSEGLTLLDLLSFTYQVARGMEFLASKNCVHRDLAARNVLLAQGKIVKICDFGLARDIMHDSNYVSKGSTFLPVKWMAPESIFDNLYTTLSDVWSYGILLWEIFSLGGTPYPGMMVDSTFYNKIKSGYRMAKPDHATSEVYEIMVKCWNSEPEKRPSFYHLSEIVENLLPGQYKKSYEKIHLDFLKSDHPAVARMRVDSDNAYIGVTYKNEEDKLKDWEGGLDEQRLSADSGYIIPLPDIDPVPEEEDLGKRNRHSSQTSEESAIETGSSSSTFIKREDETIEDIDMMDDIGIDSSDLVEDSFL
UniProt O33336, sequence (whole entry, looked up): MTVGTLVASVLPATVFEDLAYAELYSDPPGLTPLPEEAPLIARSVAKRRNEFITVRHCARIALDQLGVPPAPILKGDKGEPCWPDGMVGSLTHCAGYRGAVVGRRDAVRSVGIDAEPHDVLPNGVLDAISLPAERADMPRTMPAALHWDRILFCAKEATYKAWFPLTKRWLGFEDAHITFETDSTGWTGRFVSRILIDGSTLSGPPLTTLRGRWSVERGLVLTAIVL

Compound = CCCCCCc1cn(CC(=O)N[C@H]2CCOC2=O)nn1; target or system = lasR; assay = reporter gene, antagonist; conditions = 100 µM, with: OdDHL 10 nM; quantity = inhibition; value = 23%
Compound = CCN(CC)CCOc1ccc(-c2nnn(Cc3ccc(OC)cc3)c2N)cc1; target or system = ADRA2A (Homo sapiens, UniProt P08913); assay = radioligand binding; system = HEK293; conditions = 10 µM; quantity = inhibition; value = 60.9%
Compound = COc1cc2c3c(c4cc(OC)c(OC)cc4c2cc1OC)CN1CCCCC1C3 (stereo not shown); target or system = Replicase polyprotein 1ab, main protease (rep, Porcine transmissible gastroenteritis coronavirus, UniProt P0C6Y5); assay = enzyme activity; conditions = concentration not given; quantity = inhibition; value = no inhibition
Compound = CCn1ccc(-c2cc(-c3cnn(C)c3)cc([C@@H](C)NC(=O)c3cc(OCCN(C)C)ccc3C)c2)n1; target or system = USP14 (Homo sapiens, UniProt P54578); assay = Ub-AMC hydrolysis; conditions = up to 40 µM; quantity = inhibition; value = no inhibition
Compound = O=C1NC(=O)c2c1c1cc(F)c[n+]3c1c1c2c2cc(O)ccc2[n]1[Ru-4]312([N]=C=S)[S+]3CC[S+]1CC[S+]2CC3 (stereo not shown); target or system = RPS6KB1 (Homo sapiens, UniProt P23443); assay = enzyme activity, inhibitor; conditions = 0.1 µM; quantity = inhibition; value = 93%
Compound = CCCCCc1nc2ccc(/N=N/c3ccc(Cl)cc3)cc2c(-c2ccccc2)c1I; target or system = APP; assay = amyloid aggregation, inhibitor, fluorescence; conditions = 25 µM; quantity = inhibition; value = 64.5%
Compound = N=C(N)NCCC[C@@H]1NC(=O)[C@H](CCCCNC(=O)CC[C@H](NC(=O)CCOCCOCCOCCOCCNC(=O)CC[C@H](NC(=O)CN2CCN(CC(=O)O)CCN(CC(=O)O)CCN(CC(=O)O)CC2)C(=O)NCCOCCOCCOCCOCCC(=O)N[C@@H](CCC(=O)NCCCC[C@@H]2NC(=O)[C@@H](Cc3ccccc3)NC(=O)[C@H](CC(=O)O)NC(=O)CNC(=O)[C@H](CCCNC(=N)N)NC2=O)C(=O)NCCCC[C@@H]2NC(=O)[C@@H](Cc3ccccc3)NC(=O)[C@H](CC(=O)O)NC(=O)CNC(=O)[C@H](CCCNC(=N)N)NC2=O)C(=O)NCCCC[C@@H]2NC(=O)[C@@H](Cc3ccccc3)NC(=O)[C@H](CC(=O)O)NC(=O)CNC(=O)[C@H](CCCNC(=N)N)NC2=O)NC(=O)[C@@H](Cc2ccccc2)NC(=O)[C@H](CC(=O)O)NC(=O)CNC1=O [indium-111 labelled]; system = female athymic nude mice, kidney; conditions = intravenous, 3 µCi, 24 h, U-87 MG glioma xenograft; quantity = tissue uptake; value = 4.38 ± 1.1 %ID/g
Compound = CC(=O)NC(Cc1ccc(Br)c(Cl)c1)C(=O)N[C@@H](C)C(=O)N1CCC[C@H]1C(=O)N1CCC[C@H]1C(=O)N[C@@H](CCC(=O)O)C(=O)N[C@@H](Cc1c[nH]cn1)C(=O)N[C@@H](CO)C(=O)N[C@H](C(=O)N[C@@H](C)C(N)=O)[C@@H](C)OP(=O)(O)O (stereo partly shown); target or system = PDGFRA (Homo sapiens, UniProt P16234); assay = enzyme activity, inhibitor; conditions = 10 µM; quantity = inhibition; value = 4.04%
Compound = CCCCCn1cc(C(=O)c2cccc3c2CC(C)(C)C3)c2ccccc21; target or system = CNR1 (Homo sapiens, UniProt P21554, L193I); assay = Gαi1 engagement, agonist, BRET; how to read = baseline: wild type receptor; quantity = Emax reduction; value = ~30%
Compound = CC(C)C[C@H](N)C(=O)CCl; target or system = cathepsin H (Capra hircus, UniProt A0A452G5L2); system = goat liver; conditions = 10 µM, pH 7.0, with: Leu-βNA; quantity = inhibition; value = ~93.5%
Compound = Ic1ccccc1/N=N/c1ccc2nc(-c3ccccc3)c(I)c(-c3ccccc3)c2c1; target or system = APP; assay = amyloid aggregation, inhibitor, fluorescence; conditions = 25 µM; quantity = inhibition; value = 70.1%
Compound = CN[C@](C)(C[18F])C(=O)O; target or system = DU-145 tumour model; system = host not given, tumour; conditions = 30 min, tumour-bearing; quantity = tracer uptake; value = 4.4 %ID/g
Compound = O=C(N[C@H]1CCOC1=O)c1ccc(-c2cn(-c3ccc4[nH]ccc4c3)nn2)cc1; target or system = lasR; assay = reporter gene, antagonist; conditions = 100 µM, with: OdDHL 10 nM; quantity = inhibition; value = 23%
Compound = CCCCCn1cc(C(=O)c2cccc3ccccc23)c2ccccc21; target or system = CNR1 (Homo sapiens, UniProt P21554); assay = β-arrestin 2 recruitment, agonist, BRET; how to read = baseline: CB1 minus CB2; quantity = Emax difference; value = ~90%
Compound = CCCCc1cn(CC(=O)N[C@H]2CCOC2=O)nn1; target or system = lasR; assay = reporter gene, antagonist; conditions = 100 µM, with: OdDHL 10 nM; quantity = inhibition; value = 75%
Compound = Cc1nc(=O)c2cc(CN(C)c3ccc(C(=O)NCc4cc(=O)[nH]c(=O)[nH]4)s3)ccc2[nH]1; target or system = 4'-phosphopantetheinyl transferase PptT (Mycobacterium tuberculosis, UniProt O33336); assay = enzyme activity, inhibitor, fluorescence polarization; quantity = Hill slope; value = 1

A few entries again:
Compound = CCn1ccc(-c2cc(-c3cnn(C)c3)cc([C@@H](C)NC(=O)c3cc(OCCN(C)C)ccc3C)c2)n1; target or system = USP14 (Homo sapiens, UniProt P54578); assay = Ub-AMC hydrolysis; conditions = up to 40 µM; quantity = inhibition; value = no inhibition
Compound = O=C1NC(=O)c2c1c1cc(F)c[n+]3c1c1c2c2cc(O)ccc2[n]1[Ru-4]312([N]=C=S)[S+]3CC[S+]1CC[S+]2CC3 (stereo not shown); target or system = RPS6KB1 (Homo sapiens, UniProt P23443); assay = enzyme activity, inhibitor; conditions = 0.1 µM; quantity = inhibition; value = 93%
